Experimental data from different studies.
Protocols differ between the studies behind these lines. Several values in a cell are separate wells, animals, samples, runs or records. ± marks the error that the study gave.

SMILES = CC(C)N1CCCCC1C(=O)NC(Cc1ccc(-c2ccccc2)cc1)B(O)O (stereo not drawn); test system = male Sprague-Dawley rats, plasma; setting = intravenous, 1 mg/kg, 24 h, citrate ester; measurement = AUC(0-t); value = 2.07 µM·h
SMILES = Cn1nc(NS(C)(=O)=O)c2c(Cl)ccc(-n3c([C@H](Cc4cc(F)cc(F)c4)NC(=O)Cn4nc(C(F)F)c5c4C(F)(F)[C@@H]4C[C@H]54)nc4nc(OCCC(F)(F)F)ccc4c3=O)c21; test system = human, plasma; setting = oral, 200 mg single dose, powder in bottle, geometric mean; measurement = AUC(0-inf); value = 11600 ng·h/mL
SMILES = O=C1NC2(CC2)COc2ncc(F)cc2[C@H]2COCCN2c2ccn3ncc1c3n2; test system = Sprague-Dawley rats, male, blood; setting = oral, 20 mg/kg/day, end of treatment, 4-week subacute toxicity; measurement = fibrinogen; value = 2.48 ± 0.45 g/L
SMILES = CN1Cc2cc(Cl)ccc2-n2c(nnc2C2CCN(c3cccc(F)n3)CC2)C1; test system = male Sprague-Dawley rat, plasma; setting = intravenous, 0.03 mg/kg; measurement = AUC; value = 7.86 ng·h/mL
SMILES = CSCC[C@H](N)C(=O)N[C@@H](C)C(=O)N[C@@H](Cc1c[nH]c2ccccc12)C(=O)N[C@@H](Cc1c[nH]cn1)C(=O)N[C@@H](CC(=O)O)C(=O)N[C@@H](CC(=O)O)C(=O)N[C@@H](CCC(=O)O)C(=O)N[C@@H](CCC(=O)O)C(=O)N[C@@H](Cc1ccccc1)C(=O)N[C@@H](C)C(=O)N[C@@H](CCCNC(=N)N)C(=O)N[C@@H](CCCNC(=N)N)C(=O)N[C@@H](CCCNC(=N)N)C(=O)N[C@@H](CCCNC(=N)N)C(=O)NCCCCCC(=O)NCCCCC(NC(=O)CCCCCNC(=O)[C@H](CCCNC(=N)N)NC(=O)[C@H](CCCNC(=N)N)NC(=O)[C@H](CCCNC(=N)N)NC(=O)[C@H](CCCNC(=N)N)NC(=O)[C@H](C)NC(=O)[C@H](Cc1ccccc1)NC(=O)[C@H](CCC(=O)O)NC(=O)[C@H](CCC(=O)O)NC(=O)[C@H](CC(=O)O)NC(=O)[C@H](CC(=O)O)NC(=O)[C@H](Cc1c[nH]cn1)NC(=O)[C@H](Cc1c[nH]c2ccccc12)NC(=O)[C@H](C)NC(=O)[C@@H](N)CCSC)C(=O)NCCCCC(NC(=O)C(CCCCNC(=O)CCCCCNC(=O)[C@H](CCCNC(=N)N)NC(=O)[C@H](CCCNC(=N)N)NC(=O)[C@H](CCCNC(=N)N)NC(=O)[C@H](CCCNC(=N)N)NC(=O)[C@H](C)NC(=O)[C@H](Cc1ccccc1)NC(=O)[C@H](CCC(=O)O)NC(=O)[C@H](CCC(=O)O)NC(=O)[C@H](CC(=O)O)NC(=O)[C@H](CC(=O)O)NC(=O)[C@H](Cc1c[nH]cn1)NC(=O)[C@H](Cc1c[nH]c2ccccc12)NC(=O)[C@H](C)NC(=O)[C@@H](N)CCSC)NC(=O)CCCCCNC(=O)[C@H](CCCNC(=N)N)NC(=O)[C@H](CCCNC(=N)N)NC(=O)[C@H](CCCNC(=N)N)NC(=O)[C@H](CCCNC(=N)N)NC(=O)[C@H](C)NC(=O)[C@H](Cc1ccccc1)NC(=O)[C@H](CCC(=O)O)NC(=O)[C@H](CCC(=O)O)NC(=O)[C@H](CC(=O)O)NC(=O)[C@H](CC(=O)O)NC(=O)[C@H](Cc1c[nH]cn1)NC(=O)[C@H](Cc1c[nH]c2ccccc12)NC(=O)[C@H](C)NC(=O)[C@@H](N)CCSC)C(N)=O (stereo partly drawn); test system = C57BL/6 mouse female, colon; setting = dose not given, 6 h; scale = baseline: total; measurement = mean tissue distribution; value = 5.41%
SMILES = CCc1nn(C)c2nc(-c3ccc(C(=O)O)cc3)nc(NCc3ccccc3)c12; test system = NSG mice; setting = dose not given, day 2; measurement = body weight; value = 19.8 g and 21.6 g and 22.5 g and 19.5 g
SMILES = CC[C@H](C)[C@H](NC(=O)[C@H](CC(C)C)NC(=O)CNC(=O)[C@H](Cc1c[nH]cn1)NC(=O)[C@@H](NC(=O)[C@H](Cc1c[nH]c2ccccc12)NC(=O)[C@H](CCCCN)NC(=O)CNC(=O)[C@@H](NC(=O)[C@H](Cc1c[nH]cn1)NC(=O)[C@H](Cc1c[nH]cn1)NC(=O)[C@@H](NC(=O)CNC(=O)[C@H](Cc1c[nH]cn1)NC(=O)[C@H](Cc1ccccc1)NC(=O)[C@H](CC(C)C)NC(=O)[C@H](CC(C)C)NC(=O)CNC(=O)[C@H](CC(C)C)NC(=O)[C@@H](N)Cc1ccccc1)C(C)C)C(C)C)[C@@H](C)CC)C(=O)N[C@@H](Cc1c[nH]cn1)C(=O)NCC(=O)N[C@@H](Cc1c[nH]cn1)C(=O)N[C@@H](Cc1c[nH]cn1)C(N)=O; test system = zebrafish embryos 4 hpf, E3 medium; setting = 24 h; measurement = chronic toxic concentration; value = 5 µM
SMILES = CC(C)[C@@H]1NC(=O)CNC(=O)[C@H](CC(N)=O)NC(=O)[C@H](CCCNC(=N)N)NC(=O)[C@H](Cc2ccc(O)cc2)NC(=O)[C@H](C(C)C)NC(=O)[C@@H](NC(=O)[C@@H](NC(=O)[C@H](CC(N)=O)NC(=O)[C@H](Cc2c[nH]c3ccccc23)NC(=O)[C@H](C)NC(=O)[C@H](Cc2ccccc2)NC(=O)CNC(=O)[C@H](CCCCN)NC(=O)[C@H](Cc2ccccc2)NC(=O)[C@H](Cc2ccccc2)NC(=O)[C@H](CCCCN)NC(=O)OCC2c3ccccc3-c3ccccc32)C(C)C)CSSC[C@@H](C(=O)N[C@@H](Cc2c[nH]cn2)C(=O)N[C@@H](CCCNC(=N)N)C(=O)N[C@@H](CCCNC(=N)N)C(=O)N[C@@H](C)C(=O)N[C@@H](CC(N)=O)C(N)=O)NC(=O)[C@H](C(C)C)NC(=O)[C@H](CCCNC(=N)N)NC1=O; assay = HPLC; test system = mouse liver homogenate 50 mg/mL; setting = 8.00 h; measurement = peptide remaining; value = 30.9% and 33.9% and 36.9%
SMILES = COc1cnc2cccc(N3CCc4c(cc(Cn5ccnc5)cc4-c4cn(C)nc4C(F)(F)F)C3=O)c2c1; test system = CD-1 mouse; setting = intraperitoneal, 150 mg/kg once daily, day 2, dose-escalation tolerability; scale = baseline: day 1; measurement = body weight change; value = 2.7%
SMILES = CCCCC(CC)COC(=O)CC(C(=O)OCC(CC)CCCC)S(=O)(=O)O.CCCSc1ccc2[nH]c(NC(=O)OC)nc2c1 (stereo not drawn); assay = visual inspection; test system = Capryol 90; measurement = solubility; value = ~30 mg/mL
SMILES = CC(C)C[C@H](NC(=O)CNC(=O)[C@H](Cc1ccccc1)NC(=O)[C@@H](NC(=O)[C@@H](NC(=O)c1cccc(S(=O)(=O)F)c1)[C@@H](C)O)C(C)C)C(=O)N[C@@H](CC(N)=O)C(=O)N[C@H](C(=O)N[C@@H](Cc1c[nH]c2ccccc12)C(=O)N[C@@H](CCCCN)C(=O)N[C@@H](CCCNC(=N)N)C(=O)N[C@@H](Cc1ccc(O)cc1)C(=O)N[C@@H](CO)C(=O)N[C@@H](CCCCN)C(=O)NCC(=O)N[C@@H](CCCCNc1ccc([N+](=O)[O-])cc1[N+](=O)[O-])C(N)=O)C(C)C; assay = chemical stability, LC-MS, measured: intramolecular amine attack product; test system = PBS/DMSO/water; setting = 52 µM, 24 h, 10% DMSO, 80% water; measurement = degraded peptide; value = ~50%
SMILES = CC[C@H](C)[C@H](NC(=O)[C@H](CCCCN)NC(=O)CNC(=O)[C@H](CC(C)C)NC(=O)[C@H](Cc1ccccc1)NC(=O)[C@H](CCCCN)NC(=O)[C@H](CO)NC(=O)[C@H](Cc1ccccc1)NC(=O)[C@H](Cc1c[nH]c2ccccc12)NC(=O)[C@H](CCC(N)=O)NC(=O)[C@@H](NC(=O)[C@H](Cc1ccccc1)NC(=O)CCCCCNC(=O)CN1CCN(CC(=O)O)CCN(CC(=O)O)CCN(CC(=O)O)CC1)C(C)C)C(=O)N[C@@H](CCC(=O)O)C(=O)N1CCC[C@H]1C(=O)N[C@@H](CC(=O)O)C(=O)N[C@H](C(=O)N[C@@H](CO)C(=O)N[C@@H](CCC(N)=O)C(=O)N[C@H](C(=O)N[C@@H](CCC(N)=O)C(=O)N[C@@H](CC(=O)O)C(=O)N1CCC[C@H]1C(=O)N[C@@H](CC(N)=O)C(=O)N[C@@H](CC(=O)O)C(=O)N[C@@H](CCC(N)=O)C(=O)N[C@@H](Cc1ccc(O)cc1)C(=O)N[C@@H](CCC(=O)O)C(=O)N1CCC[C@H]1C(=O)N[C@@H](Cc1ccccc1)C(=O)O)C(C)C)C(C)C [copper-64 labelled]; test system = C57BL/6 mice, male, tumour-free, liver; setting = 4 h; measurement = tissue uptake; value = 22.8 ± 1.3 %ID/g
